{"data": "Experimental data from different studies", "note": "Lines come from different studies, so protocols differ. ± gives the spread as reported.", "UniProt P08069, sequence (whole entry, looked up)": "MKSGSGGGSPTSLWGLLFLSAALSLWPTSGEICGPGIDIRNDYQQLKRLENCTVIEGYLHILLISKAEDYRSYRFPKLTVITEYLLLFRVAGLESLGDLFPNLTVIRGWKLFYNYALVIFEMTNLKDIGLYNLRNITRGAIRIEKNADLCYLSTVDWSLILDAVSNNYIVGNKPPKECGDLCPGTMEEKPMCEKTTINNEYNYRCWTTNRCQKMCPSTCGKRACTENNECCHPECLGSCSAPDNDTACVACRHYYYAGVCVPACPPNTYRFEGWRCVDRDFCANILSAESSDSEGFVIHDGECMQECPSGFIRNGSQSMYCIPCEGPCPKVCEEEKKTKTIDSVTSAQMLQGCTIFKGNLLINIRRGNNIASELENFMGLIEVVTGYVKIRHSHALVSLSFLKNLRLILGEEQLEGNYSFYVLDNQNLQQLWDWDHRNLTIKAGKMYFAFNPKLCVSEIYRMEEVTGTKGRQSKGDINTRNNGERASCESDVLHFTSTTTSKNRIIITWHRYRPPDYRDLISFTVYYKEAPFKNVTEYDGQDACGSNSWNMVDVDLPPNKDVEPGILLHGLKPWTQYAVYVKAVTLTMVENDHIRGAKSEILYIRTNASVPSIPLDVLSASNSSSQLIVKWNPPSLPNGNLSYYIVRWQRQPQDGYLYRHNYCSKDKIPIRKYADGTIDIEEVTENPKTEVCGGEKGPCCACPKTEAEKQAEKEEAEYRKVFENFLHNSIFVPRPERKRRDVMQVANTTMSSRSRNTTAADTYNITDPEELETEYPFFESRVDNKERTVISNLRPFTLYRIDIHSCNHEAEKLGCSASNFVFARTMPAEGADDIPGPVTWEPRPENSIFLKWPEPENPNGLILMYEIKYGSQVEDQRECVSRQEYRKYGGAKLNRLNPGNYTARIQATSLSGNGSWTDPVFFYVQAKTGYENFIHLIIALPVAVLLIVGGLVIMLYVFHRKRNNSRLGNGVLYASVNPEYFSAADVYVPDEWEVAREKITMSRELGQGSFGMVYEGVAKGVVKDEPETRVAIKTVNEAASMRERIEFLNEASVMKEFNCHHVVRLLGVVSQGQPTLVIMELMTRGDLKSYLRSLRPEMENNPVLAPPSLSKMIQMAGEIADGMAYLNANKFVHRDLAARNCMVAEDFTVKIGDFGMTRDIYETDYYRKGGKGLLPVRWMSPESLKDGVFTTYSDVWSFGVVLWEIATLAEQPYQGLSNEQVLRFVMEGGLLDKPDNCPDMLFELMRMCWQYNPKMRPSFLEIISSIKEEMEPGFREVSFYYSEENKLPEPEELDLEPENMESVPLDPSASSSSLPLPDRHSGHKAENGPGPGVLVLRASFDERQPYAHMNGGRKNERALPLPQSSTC"}
{"SMILES": "CC(C)(O)c1cc(Nc2cc(Oc3cn(C4CC4)nc3C3CCOCC3)ccn2)ccn1", "assay": "item: Headache", "test system": "Japanese patients with advanced cancer", "conditions": "oral, dose not given, any grade", "measurement": "treatment-emergent adverse events", "result": "0%"}
{"SMILES": "CC(C)=CC1C(C(=O)OC(C#N)c2cccc(Oc3ccccc3)c2)C1(C)C (stereo not drawn)", "assay": "item: CYP2B6", "test system": "human, age 5 years", "measurement": "enzyme contribution to clearance", "result": "0.97%"}
{"SMILES": "CCN1[C@@H](C(=O)NC23CCC(C(=O)O)(CC2)CC3)[C@H](c2cccc(Cl)c2F)[C@]2(C(=O)Nc3cc(Cl)ccc32)C12CCCCC2", "test system": "patients with advanced solid tumours", "conditions": "oral, 200 mg", "measurement": "grade ≥3 Leukopenia incidence", "result": "50%"}
{"SMILES": "NCCCS(=O)(=O)O", "test system": "human", "conditions": "oral, 265 mg twice daily, 8 h post-dose, week 65", "measurement": "plasma concentration", "result": "281 ng/mL"}
{"SMILES": "CC[C@H](C)[C@H](NC(=O)[C@H](Cc1ccccc1)NC(=O)[C@H](CCC(=O)O)NC(=O)[C@H](CCCNC(=N)N)NC(=O)[C@H](C)NC(=O)[C@H](C)NC(=O)[C@H](CCC(N)=O)NC(=O)[C@H](CCC(=O)O)NC(=O)[C@H](CCC(=O)O)NC(=O)[C@H](CC(C)C)NC(=O)[C@H](Cc1ccc(O)cc1)NC(=O)[C@H](CO)NC(=O)[C@H](CO)NC(=O)[C@@H](NC(=O)[C@H](CC(=O)O)NC(=O)[C@H](CO)NC(=O)[C@@H](NC(=O)[C@H](Cc1ccccc1)NC(=O)[C@@H](NC(=O)CNC(=O)[C@H](CCC(=O)O)NC(=O)[C@H](C)NC(=O)CCc1cnc[nH]1)[C@@H](C)O)[C@@H](C)O)C(C)C)C(=O)N[C@@H](C)C(=O)N[C@@H](Cc1c[nH]c2ccccc12)C(=O)N[C@@H](CC(C)C)C(=O)N[C@H](C(=O)N[C@@H](CCCNC(=N)N)C(=O)NCC(=O)N[C@@H](CCCNC(=N)N)C(=O)N[C@@H](CCCCNC(=O)COCCOCCNC(=O)COCCOCCNC(=O)CC[C@H](NC(=O)CCCCCCCCCCCCCCCCC(=O)O)C(=O)O)C(=O)NCC(=O)NCC(=O)N[C@@H](CO)C(=O)N[C@@H](CCCCNC(=O)[C@H](CCCCNC(=O)[C@H](CCCCNc1c(NCCCCCN(O)C(=O)CCC(=O)NCCCCCN(O)C(=O)CCC(=O)NCCCCCN(O)C(C)=O)c(=O)c1=O)Nc1c(NCCCCCN(O)C(=O)CCC(=O)NCCCCCN(O)C(=O)CCC(=O)NCCCCCN(O)C(C)=O)c(=O)c1=O)NC(=O)[C@H](CCCCNc1c(NCCCCCN(O)C(=O)CCC(=O)NCCCCCN(O)C(=O)CCC(=O)NCCCCCN(O)C(C)=O)c(=O)c1=O)Nc1c(NCCCCCN(O)C(=O)CCC(=O)NCCCCCN(O)C(=O)CCC(=O)NCCCCCN(O)C(C)=O)c(=O)c1=O)C(=O)O)C(C)C [zirconium-89 labelled]", "assay": "ex vivo gamma counting", "test system": "male Sprague-Dawley rats, bone marrow", "conditions": "intravenous, 1 nmol, 24 h", "measurement": "tissue uptake", "result": "1.77 %ID/g"}
{"SMILES": "C[C@@H]1OC(=O)NN=C1c1ccc(-c2ccc(F)cc2)c(C(F)(F)F)c1", "assay": "phase I trial, item: Dyspnoea worst grade 2", "test system": "human patients", "conditions": "5 mg once daily", "measurement": "patients with adverse event", "result": "0%"}
{"SMILES": "O[C@H]1CCCN[C@@H]1CCCn1cnc2c(Cl)c(Cl)ccc21", "test system": "human, UGT2B7 NN phenotype, plasma", "conditions": "oral, 150 mg twice daily, steady state", "measurement": "AUCtau", "result": "1360 ng·h/mL"}
{"SMILES": "O=C(Nc1cccnn1)N1CCC(=Cc2cccc(Oc3ccc(C(F)(F)F)cn3)c2)CC1", "test system": "culture medium without cells", "conditions": "100 nM, 1 h", "measurement": "concentration", "result": "38.6 ± 0.6 nM"}
{"SMILES": "CCCCCOc1ccc(-c2ccc(-c3ccc(C(=O)N[C@H]4C[C@@H](O)[C@@H](OCC[N+](C)(C)C)NC(=O)[C@@H]5[C@@H](O)[C@@H](C)CN5C(=O)[C@H]([C@@H](C)O)NC(=O)[C@H]([C@H](O)[C@@H](O)c5ccc(O)cc5)NC(=O)[C@@H]5C[C@@H](O)CN5C(=O)[C@H]([C@@H](C)O)NC4=O)cc3)cc2)cc1", "test system": "adult patients not in ICU, plasma", "conditions": "intravenous, 400 mg loading dose, after first dose, geometric mean", "measurement": "Cmax", "result": "17.6 µg/mL"}
{"SMILES": "C[C@H]1CN(c2n[nH]c3nc(N[C@H]4CC[C@H](NS(=O)(=O)CCC(F)(F)F)CC4)ncc23)CCO1", "target or system": "Insulin-like growth factor 1 receptor (IGF1R, Homo sapiens, UniProt P08069)", "assay": "inhibitor, Kinobeads competition profiling", "conditions": "20 µM", "scale": "reference: vehicle", "measurement": "relative abundance", "result": 1.08}
{"SMILES": "Cc1cccc(Cn2nc(C3CC3)c3c(NC(=O)c4cnc5cc(OCCN6CCN(C)CC6)ccn45)cccc32)n1", "assay": "item: Pyrexia", "test system": "human advanced solid tumours", "conditions": "oral, dose not given, all-causality,, all doses", "measurement": "adverse events incidence", "result": "36.8%"}
{"SMILES": "CO[C@H]1C[C@@H]2CC[C@@H](C)[C@@](O)(O2)C(=O)C(=O)N2CCCC[C@H]2C(=O)O[C@H]([C@H](C)C[C@@H]2CC[C@@H](OC(=O)NCCOCCOCCOCCOCCOCCOCCOCCOCCC(=O)N3CCc4cc(Cn5nc(-c6ccc7oc(N)nc7c6)c6c(N)ncnc65)ccc4C3)[C@H](OC)C2)C[C@@H](O)[C@H](C)/C=C(\\C)[C@@H](O)[C@@H](OC)C(=O)[C@H](C)C[C@H](C)/C=C/C=C/C=C/1C", "test system": "patients with advanced solid tumours", "conditions": "intravenous, dose not given, grade ≥3", "measurement": "incidence of Headache TEAE", "result": "0%"}
{"SMILES": "[O-][S+]1CCc2nc(N3CCC(c4ncc(Cl)cn4)CC3)nc(NC3(CO)CCC3)c21 (stereo not drawn)", "assay": "item: Nausea", "test system": "healthy male humans", "conditions": "36 mg single dose", "measurement": "adverse event incidence", "result": "0%"}
{"SMILES": "Nc1nc2cc(-c3ccc4ncc(C(=O)N5CCOCC5)n4c3)ccc2o1", "assay": "item: Anemia", "test system": "advanced solid tumour patients", "conditions": "dose not given", "measurement": "patients with adverse event", "result": "3%"}
{"SMILES": "COc1cc2c(Oc3ccc4[nH]c(C)cc4c3F)ccnc2cc1OCC1(N)CC1", "test system": "paediatric recurrent refractory sarcoma", "conditions": "8 mg/kg", "measurement": "grade 1 or 2 Leukopenia", "result": "13.3%"}
{"note": "A few entries again:"}
{"SMILES": "C[C@H]1CN(c2n[nH]c3nc(N[C@H]4CC[C@H](NS(=O)(=O)CCC(F)(F)F)CC4)ncc23)CCO1", "target or system": "Insulin-like growth factor 1 receptor (IGF1R, Homo sapiens, UniProt P08069)", "assay": "inhibitor, Kinobeads competition profiling", "conditions": "20 µM", "scale": "reference: vehicle", "measurement": "relative abundance", "result": 1.08}
{"SMILES": "Cc1cccc(Cn2nc(C3CC3)c3c(NC(=O)c4cnc5cc(OCCN6CCN(C)CC6)ccn45)cccc32)n1", "assay": "item: Pyrexia", "test system": "human advanced solid tumours", "conditions": "oral, dose not given, all-causality,, all doses", "measurement": "adverse events incidence", "result": "36.8%"}
